Measurements from different studies.
Each numbered part is a random draw from the data of one study; scales do not carry over between parts. Several values in a cell are separate wells, animals, samples, runs or records. ± gives the spread as reported.

Block 1 — cell line: HEK-293T; effect on: pseudovirus infection; technique: FDA-approved drug library screen; organism: VSV pseudotyped with SARS-CoV-2 spike; tested at: 10 µM; time: 16 h; relative to: vehicle-treated
SMILES	GFP-positive cells [%]
CC(O)(P(=O)(O)O)P(=O)(O)O	112
CCOC(=O)CCC(=O)O[C@H]1[C@H](O[C@@H]2[C@@H](C)[C@H](O[C@H]3C[C@@](C)(OC)[C@@H](O)[C@H](C)O3)[C@@H](C)C(=O)O[C@H](CC)[C@@](C)(O)[C@H](O)[C@@H](C)C(=O)[C@H](C)C[C@@]2(C)O)O[C@H](C)C[C@@H]1N(C)C	106
CC1=C(C/C=C(\C)CCC[C@H](C)CCC[C@H](C)CCCC(C)C)C(=O)c2ccccc2C1=O	82.6
Cc1nc2n(c(=O)c1CCN1CCC(c3noc4cc(F)ccc34)CC1)CCCC2O (centres unmarked)	91

Block 2 — effect on: enzyme activity; action: inhibitor; tested at: 20 µM
Target: Replicase polyprotein 1ab, polymerase (rep, Severe acute respiratory syndrome coronavirus 2, UniProt P0DTD1)
SMILES	inhibition
CC[N+](CC)(CC)CCOc1ccc(/C=C/c2ccccc2)cc1	-0.63%
N=C(N)NCCN1CCCCCCC1	14.7%
c1cc2c(cc1[C@H]1OC[C@H]3[C@@H]1CO[C@@H]3c1ccc3c(c1)OCO3)OCO2	-0.88%
Cn1c(N2CCCCS2(=O)=O)nc(C(=O)NCc2ccc(F)cc2)c(O)c1=O	-0.99%
CC(C(=O)O)c1ccc2c(c1)CC(=O)c1ccccc1S2 (centres unmarked)	-0.77%
O=C(O[C@H]1C[N+]2(CCCOc3ccccc3)CCC1CC2)C(O)(c1cccs1)c1cccs1	-1.4%
O=C(OCC(O)CO)c1ccccc1Nc1ccnc2cc(Cl)ccc12 (centres unmarked)	6.05%
N#Cc1cc(CN2CCC(Nc3ncnc4sc(Cl)cc34)CC2)ccc1F	-6.66%
CC[N+](CC)(CCNC(=O)C(=O)NCC[N+](CC)(CC)Cc1ccccc1Cl)Cc1ccccc1Cl	0.2%
CC[C@H](NC(=O)c1c(O)c(-c2ccccc2)nc2ccccc12)c1ccccc1	2.31%
CC(C)OC(=O)C1=CN(C(=O)c2ccc(F)c(F)c2)CC(C)(C)c2c1[nH]c1ccccc21	-0.2%
CCCCc1nc(Cl)c(CO)n1Cc1ccc(-c2ccccc2-c2nnn[nH]2)cc1	2.31%
COc1cc2c(c(OC)c1OC)-c1c(cc3c(c1OC)OCO3)C[C@H](C)[C@H](C)C2	-8.28%
COC1CCN(C(=O)c2cc(Cc3n[nH]c(=O)c4ccccc34)ccc2F)CC1	3.24%
O=C1C2CC=CCC2C(=O)N1SC(Cl)(Cl)Cl (centres unmarked)	2.85%
Cc1sc(N)c(C(=O)c2cccc(C(F)(F)F)c2)c1C	4.01%
CN(C)CCN(Cc1ccc(Cl)cc1)c1ccccn1	3.73%
O=C(Nc1ccc(O)cc1)c1ccccc1O	2.94%
Cc1ccc(NC(=O)c2cccc(C(C)(C)C#N)c2)cc1Nc1ccc2ncn(C)c(=O)c2c1	-13.8%

Mixed results
rep main protease: Replicase polyprotein 1ab, main protease (rep, Severe acute respiratory syndrome coronavirus 2, UniProt P0DTD1)
B1: yoeB 1-88 (Staphylococcus aureus, UniProt A0A3A3ATA4); chain MARLNITFSPQAFEDYKYFQQNNKKMVKKINELLKSIDRNGALEGIGKPEKLKSNLTGYYSRRINHEHRLVYTVDDNHIKIASCKYHY
Substance	tested on	assay	system	setting	scale	endpoint	result
Rhodiosin	rep main protease	inactivator	–	–	–	kinact/KI	408 M⁻¹ s⁻¹
RTCKDLIPVSECTDIRCRTSMKYRLNLCRKTCGSC (HmK mature tethered (Heteractis magnifica, UniProt O16846); C-terminal GPI anchor)	KCNA3 (Homo sapiens, UniProt P22001-1)	channel current block, two-electrode voltage clamp	–	–	–	koff	0.016 s⁻¹
B1 (yoeB 1-88)	yefM (Staphylococcus aureus, UniProt A0A0B4ND47)	SEC-MALS	–	–	–	YoeB per YefM	1 YoeB per YefM
BKRF4 fragment W84Y/P86A (Epstein-Barr virus)	H2A/H2B dimer (Homo sapiens)	ITC	–	25 °C, NaCl 0.5 M	relative to: wild type, lower = weaker binding	relative binding	8 fold
NAPRITFGGP	PBMC from COVID-19 convalescents	T-cell response, ELISpot	peptide	concentration not given, HLA-B*07:02	–	responding individuals	21% and 21.5%
LMP1 D150A (Epstein-Barr virus)	itself	luciferase reporter	HEp2	–	relative to: LMP-1 expressing cells, higher = less activity	NFκB reporter activity	6 fold less
Kaliotoxin	human iPSC-derived microglia	cytokine release, ELISA	–	2 µM, added: LPS	–	IL-6 release	no effect
CC[C@H](C)[C@H](NC(=O)[C@H](CC(C)C)NC(=O)[C@H](Cc1c[nH]c2ccccc12)NC(=O)[C@H](CCC(N)=O)NC(=O)[C@@H](NC(=O)[C@H](Cc1ccccc1)NC(=O)[C@H](C)NC(=O)[C@H](CCCCNC(=O)COCCOCCNC(=O)COCCOCCNC(=O)CC[C@H](NC(=O)CCCCCCCCCCCCCCCCCCC(=O)O)C(=O)O)NC(=O)[C@H](CCC(N)=O)NC(=O)[C@H](C)NC(=O)[C@@H](NC(=O)[C@H](CCCCN)NC(=O)[C@H](CC(=O)O)NC(=O)[C@H](CC(C)C)NC(=O)C(C)(C)NC(=O)[C@@H](NC(=O)[C@H](CO)NC(=O)[C@H](Cc1ccc(O)cc1)NC(=O)[C@H](CC(=O)O)NC(=O)[C@H](CO)NC(=O)[C@@H](NC(=O)[C@H](Cc1ccccc1)NC(=O)[C@@H](NC(=O)CNC(=O)[C@H](CCC(=O)O)NC(=O)C(C)(C)NC(=O)[C@@H](N)Cc1ccc(O)cc1)[C@@H](C)O)[C@@H](C)O)[C@@H](C)CC)[C@@H](C)CC)C(C)C)C(=O)N[C@@H](C)C(=O)NCC(=O)NCC(=O)N1CCC[C@H]1C(=O)N[C@@H](CO)C(=O)N[C@@H](CO)C(=O)NCC(=O)N[C@@H](C)C(=O)N1CCC[C@H]1C(=O)N1CCC[C@H]1C(=O)N1CCC[C@H]1C(=O)N[C@@H](CO)C(N)=O	–	–	healthy subjects, serum	0.5 mg, baseline, multiple ascending dose	–	serum ALT	22 ± 7.6 U/L
TTVAAFHQECSLQSC	human CD4 T cells	AIM	peptide	–	–	responding donors	18%
CC(C)CC(NC(=O)OCc1ccccc1)C(=O)NC(C(=O)NCC(=O)C=[N+]=[N-])C(C)C (centres unmarked)	SARS-CoV-2	viral replication, inhibitor	Vero E6, USA-WA1/2020	24 h	–	EC90	2050 nM
COc1ccc(C[C@H](NC(=O)[C@H](C)NC(=O)CN2CCOCC2)C(=O)N[C@@H](Cc2ccccc2)C(=O)C2(C)CO2)cc1 (stereo in doubt)	rep main protease	reporter gene (Gaussia luciferase), inhibitor	–	20 µM	–	inhibition	-5.46%
CCNC/C=C\CNCCCCNCCCCNC/C=C\CNCC	SARS-CoV-2	viral replication, inhibitor	Vero E6, USA-WA1/2020	24 h	–	EC90	~304 nM
O=c1cccccc1O	rep main protease	reporter gene (mKate2), inhibitor	–	20 µM	–	inhibition	-1.1%
hemin	rep main protease	enzyme activity, inhibitor	–	1 h preincubation, 37 °C, added: Tween-20 0.05%	–	IC50	25000 nM
CCCCCCNC(=O)n1cc(F)c(=O)[nH]c1=O	rep main protease	enzyme activity, inhibitor	–	20 µM, hit confirmation, with DTT	–	inhibition	99.2%

For quick reference, copied from above (block 2):
SMILES	inhibition
CC[N+](CC)(CC)CCOc1ccc(/C=C/c2ccccc2)cc1	-0.63%
CC(C(=O)O)c1ccc2c(c1)CC(=O)c1ccccc1S2 (centres unmarked)	-0.77%
CN(C)CCN(Cc1ccc(Cl)cc1)c1ccccn1	3.73%
CCCCc1nc(Cl)c(CO)n1Cc1ccc(-c2ccccc2-c2nnn[nH]2)cc1	2.31%
Cc1sc(N)c(C(=O)c2cccc(C(F)(F)F)c2)c1C	4.01%
c1cc2c(cc1[C@H]1OC[C@H]3[C@@H]1CO[C@@H]3c1ccc3c(c1)OCO3)OCO2	-0.88%
